Experimental data pooled from the literature.
Numbered parts are unrelated; each lists some results of a single study.

Block 1
Target: Histone acetyltransferase KAT6A, both winged helices, GST fusion (KAT6A, Homo sapiens, UniProt Q92794, residues 1-181)
Technique: protein binding microarray
Form: double-stranded DNA, one strand shown
Matrix: in vitro
Concentration: not given
Notes: 8-mer, flanks averaged, mean of 2 arrays, mostly near background
Reference: not given
Reading: higher = stronger binding
Construct (chain): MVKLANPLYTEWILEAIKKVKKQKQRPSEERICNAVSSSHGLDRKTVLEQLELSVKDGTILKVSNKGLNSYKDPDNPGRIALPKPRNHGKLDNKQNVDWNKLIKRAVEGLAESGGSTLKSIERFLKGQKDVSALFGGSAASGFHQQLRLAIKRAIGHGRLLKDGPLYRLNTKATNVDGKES
Sequence	E-score
ATCGGGTG	0.123
AGGAGACC	-0.0865
AGGACCTG	-0.129
TACGACAA	-0.0835
AATCTGAT	-0.00684
CAATAGGA	-0.136
AGCTTTAA	-0.0516
ACCTGATG	-0.0833
GGATGAAC	-0.0703
CGTCTGCC	0.137
CAATCCCG	0.196
CCACCCAA	-0.193
TGCGCTAA	0.265
ATCAACAA	-0.091
CGATCCTC	-0.00864
ATGGCCTC	-0.296
ACACCACT	-0.152
CTCGCAGC	-0.0132
CAATTATC	0.0852
ACCGCCTG	0.13
ACTACTCA	-0.066
ATACAAAA	-0.0751
CCTATTTA	-0.093
CCCATCCC	-0.0741

Block 2
Target: RNA binding protein fox-1 homolog 2, RRM domain, GST-SBP tag (RBFOX2, Homo sapiens, UniProt O43251-10, residues 100-194)
Technique: RNA Bind-n-Seq
Form: RNA
Matrix: in vitro
Concentration: 365 nM
Notes: natural RNA segment, single round, ends assumed
Reference: no-protein control
Reading: higher = stronger binding
All sequences stand within: GGGAGUUCUACAGUCCGACGAUC … UGGAAUUCUCGGGUGCCAA
Residues (chain): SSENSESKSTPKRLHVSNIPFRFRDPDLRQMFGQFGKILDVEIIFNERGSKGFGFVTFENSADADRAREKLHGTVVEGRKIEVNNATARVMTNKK
Sequence	RBNS enrichment (R)
UUCGUUUUUUUAACUGUUCAUUCCUUUGUGCAGAGUGUAUAUCUCUGCCUGGGCAAGAGUGUGGAGGUGCCGAGGUGUCUUCAUUCUCUCGCACAUUUCCACAGCACCUG	0.186
GUGUGGAAUAAAAAAGGGAAACUGUUUUCACAAGCUGUUCUUUGUUUCAUAAUUGGAUUCAUCAAUCCCGUAGCUACCCAUAUUGCACUGAGCUUGCCAGUGGUGACUGC	0.488
GACGAAGGCUCUGCUGGUCCUCCUGUGCUGGGAAUCUCUUUGAUGGCCUCUUGUGAAGCUCAUGAAACUUUAACAAGUGUUUGACCUUACAGCUUCCUCUGGGAGGUCGU	0.35
UUCUACCCACCUAAACCCCCCAAAAAAGACAAAACGAAAAGAAGCCACUUCAUCUUAUGUGCCGCUGCUUGUCUUCAGCCCAUUAGCCAGGUACUGAGCGUCAGGCUCUG	0.507
UUCUCUGCUGGGAAUCUACCCCUUUCUGGAGGAGAAACCCAUUCCACCUUAAUAACUUUAUUGUAAUGUGAGAAACACAAAACAAAGUUUACUUUUUUGACUCUAAGCUG	0.309
UAUUUGGUCUUAACUGGAUUUUAAAGAGUUUGGCGUAUUAGUAGCAUUUAAAGCCAGAUAGGGCACCCUUGCUGUGUCAAUGAGGAAGUUACUGUAAACACAGUGUUCGA	0.693
UUCGACUACUGCUCCUGUGGCAGGAGGCUUUGGGUGGCUCACUACUGAACACAUGUGUAUGAUACUAAAGACGGUAUUAAAAUGGAGCGACGUUUAUUUCAUCUCUUGUU	0.864
GCCUAAUCAGCCCACCAUGUUCUCCACUGAAAAAUCCUCUUUCUUUGGGGUUUUUCUUUCUUUCUUUUUUGAUUUUGCACUGGACGGUGACGUCAGCCAUGUACAGGAUC	0.44

Block 3
Target: Sal-like protein 4, full length isoform A (SALL4, Homo sapiens, UniProt Q9UJQ4, residues 1-1053)
Chain of UniProt Q9UJQ4 (whole entry, looked up): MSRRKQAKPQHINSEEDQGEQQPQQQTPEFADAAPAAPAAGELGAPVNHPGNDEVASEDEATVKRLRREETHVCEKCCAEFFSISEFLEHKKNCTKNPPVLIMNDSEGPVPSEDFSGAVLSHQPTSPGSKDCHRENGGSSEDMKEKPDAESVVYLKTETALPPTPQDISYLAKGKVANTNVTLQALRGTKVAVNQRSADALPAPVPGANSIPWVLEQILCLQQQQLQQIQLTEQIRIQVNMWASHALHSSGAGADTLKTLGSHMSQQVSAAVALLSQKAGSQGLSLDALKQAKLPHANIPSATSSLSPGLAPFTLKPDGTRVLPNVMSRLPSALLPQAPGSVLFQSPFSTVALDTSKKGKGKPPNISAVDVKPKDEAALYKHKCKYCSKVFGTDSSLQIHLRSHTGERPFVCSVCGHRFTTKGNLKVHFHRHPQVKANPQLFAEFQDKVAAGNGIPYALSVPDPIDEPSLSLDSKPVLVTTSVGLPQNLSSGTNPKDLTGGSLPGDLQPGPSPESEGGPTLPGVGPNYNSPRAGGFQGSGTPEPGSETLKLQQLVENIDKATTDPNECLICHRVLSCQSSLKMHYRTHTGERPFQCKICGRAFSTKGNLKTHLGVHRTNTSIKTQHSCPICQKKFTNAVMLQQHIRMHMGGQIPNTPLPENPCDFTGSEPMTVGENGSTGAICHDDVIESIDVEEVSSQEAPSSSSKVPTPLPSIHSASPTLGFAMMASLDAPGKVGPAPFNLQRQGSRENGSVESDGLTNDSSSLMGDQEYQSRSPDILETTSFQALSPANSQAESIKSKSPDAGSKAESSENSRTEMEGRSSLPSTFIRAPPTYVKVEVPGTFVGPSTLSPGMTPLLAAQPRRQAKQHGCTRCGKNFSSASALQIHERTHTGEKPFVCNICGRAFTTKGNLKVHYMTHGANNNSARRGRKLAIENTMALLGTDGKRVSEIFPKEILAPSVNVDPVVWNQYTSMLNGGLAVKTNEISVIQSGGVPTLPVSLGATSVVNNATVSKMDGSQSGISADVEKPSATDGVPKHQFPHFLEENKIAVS
Technique: universal PBM
Form: double-stranded DNA, one strand shown
Matrix: in vitro
Concentration: 600 nM
Notes: 8-mer, flanks averaged, mean of replicates
Reading: higher = stronger binding
Sequence	E-score
CCCTGCAA	-0.0412
CGATGAGA	0.0492
ATCCTGCC	-0.278
TATTAGAA	0.345
CCATCTCG	-0.319
CATAATGG	0.0763
ATCTTCCC	-0.027
ACACGCCC	-0.273
AGAAACAG	0.0226
ACAATAGC	0.152
AGCCGAGC	-0.404
ACGAAGCT	-0.141
GCTACAAC	-0.144
TGGACAAA	0.0305
ATCAAACC	0.0354
AAAGGATT	0.132
ACGGCAAT	0.143
CCCTAAGG	-0.189
ATCCGCAT	0.00333
ACATCCGG	-0.11
ATGAAGCC	0.0481
CGGTTCAG	-0.259
GTCAGGGA	-0.127
ATCTCTCC	-0.0152

Block 4
Target: Interferon regulatory factor 3, full length, phosphomimetic (IRF3, Homo sapiens, UniProt Q14653, residues 1-427, S386D/S396D/S398D/S402D/T404D/S405D)
Technique: protein-binding microarray
Form: double-stranded DNA, one strand shown
Matrix: in vitro
Concentration: 2540 nM top
Notes: 60-bp whole probe
Together with: salmon DNA 0.4 mg/ml
Reference: random background probes
Reading: higher = stronger binding
All sequences stand within: GCCTAGCAC … GTCTTGATTCGCTTGACGCTGCTG
Residues (chain): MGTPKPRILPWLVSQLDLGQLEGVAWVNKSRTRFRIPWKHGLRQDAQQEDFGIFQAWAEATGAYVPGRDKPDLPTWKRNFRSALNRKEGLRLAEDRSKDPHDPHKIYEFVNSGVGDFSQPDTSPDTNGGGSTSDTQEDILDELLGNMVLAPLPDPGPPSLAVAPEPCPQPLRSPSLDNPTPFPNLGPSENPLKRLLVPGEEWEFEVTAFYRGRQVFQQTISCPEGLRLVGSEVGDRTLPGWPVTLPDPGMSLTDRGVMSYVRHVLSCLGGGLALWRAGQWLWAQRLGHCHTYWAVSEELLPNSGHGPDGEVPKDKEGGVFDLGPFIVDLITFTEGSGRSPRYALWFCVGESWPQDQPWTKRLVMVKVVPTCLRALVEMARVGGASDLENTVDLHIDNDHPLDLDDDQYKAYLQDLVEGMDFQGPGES
Sequence	fitted relative affinity [z-score]
GACGAAGTGGGGTTTCGAGACGTGCTA	0.331
CTAAAACTCTTTATTTAAGCGTGCTAG	0.468
GACGAATTGGGGTTTCGAGACGTGCTA	0.641
TCAATTTTCCAAATGCCACTGTGCTAG	3.21
GAGGGACTGGGTATCGGGACGTGCTAG	-0.487
GTCACATTGTGCAATCTTAATGTGCTA	0.836
TTAGATTTGAGTTTCGATTAGTGCTAG	2.8
TCACATTTTTTTTCATCACTGTGCTAG	0.763
GAGGGACTGCTTTTCCTGACGTGCTAG	-0.394
CTTTACATGGGTTTTCAGCTGGTGCTA	0.432
GACGATATCAGACTGGCGACGTGCTAG	0.149
AGATATCTGCACTCTCATGTGTGCTAG	0.251
TCATCTTCCTTCATGGCACTGTGCTAG	1.59
GACGGTTTCGGGGCTGGGGACGTGCTA	3.1
GGTGATTTCAGTTTTCTTTTGTGCTAG	4.85
GTCTCTTGTTCTCTCTGGCCGTGCTAG	0.43
CAGAATTTACTTTCTACGTCGTGCTAG	1.34
TGTGCTTTCCTGATGACCCTGTGCTAG	1.24
GAGTCTTCTCCTCTAGGTTCGTGCTAG	0.0748

For quick reference, copied from above (block 3):
Sequence	E-score
ATCCTGCC	-0.278
TATTAGAA	0.345
CCATCTCG	-0.319
CATAATGG	0.0763
ATCTTCCC	-0.027
ACACGCCC	-0.273
